Measured values from different studies.
Every numbered part comes from another study and shows a few of its results, in no order. Positions count from the first letter of the parent shown.
Chain of UniProt P38919 (whole entry, looked up): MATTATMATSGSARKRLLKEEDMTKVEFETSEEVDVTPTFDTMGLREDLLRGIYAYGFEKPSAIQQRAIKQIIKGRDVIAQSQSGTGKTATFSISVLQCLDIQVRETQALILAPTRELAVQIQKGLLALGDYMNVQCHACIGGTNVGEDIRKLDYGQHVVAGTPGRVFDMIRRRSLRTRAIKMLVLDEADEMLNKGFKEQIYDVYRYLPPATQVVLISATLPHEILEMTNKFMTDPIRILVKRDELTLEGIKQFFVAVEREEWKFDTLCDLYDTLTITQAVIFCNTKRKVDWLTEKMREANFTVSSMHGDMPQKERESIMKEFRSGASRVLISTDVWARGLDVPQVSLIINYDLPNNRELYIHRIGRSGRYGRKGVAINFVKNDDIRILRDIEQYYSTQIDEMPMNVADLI
Chain of UniProt Q9Y243 (whole entry, looked up): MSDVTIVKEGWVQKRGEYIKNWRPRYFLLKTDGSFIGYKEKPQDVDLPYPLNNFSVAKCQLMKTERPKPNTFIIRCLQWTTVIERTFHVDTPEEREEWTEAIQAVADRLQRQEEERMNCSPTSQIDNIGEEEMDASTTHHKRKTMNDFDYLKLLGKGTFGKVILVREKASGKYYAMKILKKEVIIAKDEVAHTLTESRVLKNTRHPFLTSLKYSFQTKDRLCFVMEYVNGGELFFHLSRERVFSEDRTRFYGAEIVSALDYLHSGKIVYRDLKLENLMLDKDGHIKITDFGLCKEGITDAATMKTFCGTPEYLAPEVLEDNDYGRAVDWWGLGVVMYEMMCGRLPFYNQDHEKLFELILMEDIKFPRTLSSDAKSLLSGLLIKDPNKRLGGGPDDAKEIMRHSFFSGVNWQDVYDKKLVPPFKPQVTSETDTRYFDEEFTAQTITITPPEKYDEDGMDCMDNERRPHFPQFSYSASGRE
Chain of UniProt Q9UQM7 (whole entry, looked up): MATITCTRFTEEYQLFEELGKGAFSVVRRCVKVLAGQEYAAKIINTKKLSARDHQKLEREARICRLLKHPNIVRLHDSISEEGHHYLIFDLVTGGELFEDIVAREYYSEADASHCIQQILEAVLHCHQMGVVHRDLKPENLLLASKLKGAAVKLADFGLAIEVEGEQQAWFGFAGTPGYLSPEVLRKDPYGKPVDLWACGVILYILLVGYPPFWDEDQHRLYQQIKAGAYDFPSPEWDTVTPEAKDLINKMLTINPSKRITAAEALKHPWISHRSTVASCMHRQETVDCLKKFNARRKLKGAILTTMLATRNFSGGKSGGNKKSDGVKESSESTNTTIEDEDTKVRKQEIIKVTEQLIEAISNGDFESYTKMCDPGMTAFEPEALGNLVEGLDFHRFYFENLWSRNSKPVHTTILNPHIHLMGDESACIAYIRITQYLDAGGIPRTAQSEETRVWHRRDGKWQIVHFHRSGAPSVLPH

Block 1
Target: CCNF, cyclin fold, Cln2 fusion (human)
Method: yeast growth competition, sequencing
Sample: yeast
Setting: strong parent motif
Baseline: not given
Direction: higher = stronger binding
Starting sequence: viral docking peptide; KGVKRKLFAEDSS
| Variant | normalised enrichment score |
| --- | --- |
| KGVCRKLFAEDSS [K4C] | 7.92 |
| KGVKRKLFAQDSS [E10Q] | 7.48 |
| KGVKRKLFAEFSS [D11F] | 8.61 |
| KGVKRCLFAEDSS [K6C] | 7.86 |
| KGVKRKFFAEDSS [L7F] | 0.868 |
| KGVKRKLFAHDSS [E10H] | 7.62 |
| KGVKRGLFAEDSS [K6G] | 3.96 |
| KGKKRKLFAEDSS [V3K] | 1.41 |

Block 2
Target: vanadate, free oxyanion
Method: microfluidic competitive inhibition
Sample: in vitro, cell-free expressed
Tested at: not given
Setting: derived from inhibition constants, unchanged parent 676 nM
Direction: lower = stronger binding
Starting sequence: PafA, mature enzyme, eGFP fusion (Elizabethkingia meningoseptica, UniProt Q9KJX5); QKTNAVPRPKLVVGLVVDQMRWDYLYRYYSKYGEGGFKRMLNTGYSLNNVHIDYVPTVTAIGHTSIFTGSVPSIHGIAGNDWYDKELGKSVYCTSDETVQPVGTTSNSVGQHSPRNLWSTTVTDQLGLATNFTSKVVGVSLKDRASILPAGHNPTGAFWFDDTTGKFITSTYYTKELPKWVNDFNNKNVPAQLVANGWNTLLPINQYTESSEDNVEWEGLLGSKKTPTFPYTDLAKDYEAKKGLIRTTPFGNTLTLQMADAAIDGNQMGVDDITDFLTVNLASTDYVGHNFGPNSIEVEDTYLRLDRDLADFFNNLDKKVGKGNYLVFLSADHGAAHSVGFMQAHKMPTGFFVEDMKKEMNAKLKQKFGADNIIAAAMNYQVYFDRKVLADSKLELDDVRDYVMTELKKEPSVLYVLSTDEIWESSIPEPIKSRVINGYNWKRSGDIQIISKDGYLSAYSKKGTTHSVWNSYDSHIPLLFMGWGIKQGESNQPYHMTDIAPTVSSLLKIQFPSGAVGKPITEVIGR
| Variant | oxyanion analog dissociation constant |
| --- | --- |
| P249G | 1.32 µM |
| A390V | 0.872 µM |
| K461G | 1.16 µM |
| P72G | 1.04 µM |
| M356G | 0.668 µM |
| V17A | 0.636 µM |
| S95G | 0.888 µM |
| R27V | 1.06 µM |

Other studies, line by line
| Molecule | tested on | test | conditions | scale | endpoint | result |
| --- | --- | --- | --- | --- | --- | --- |
| COc1cc([C@H]2OC[C@@H]3[C@@H]2CO[C@H]3c2cc(OC)c(O[C@@H]3O[C@H](CO)[C@@H](O)[C@H](O)[C@H]3O)c(OC)c2)cc(OC)c1O[C@@H]1O[C@H](CO)[C@@H](O)[C@H](O)[C@H]1O | CAMK2A (Homo sapiens, UniProt Q9UQM7) | enzyme activity, inhibitor | 10 µM |  | inhibition | 11% |
| C=CC(=O)Nc1ccc2[nH]c(=O)n(C3CCN(Cc4ccc(-c5ccc6c(c5)NC(=O)CO6)cc4)CC3)c2c1 | AKT3 (Homo sapiens, UniProt Q9Y243) | target engagement in cells, BRET |  |  | IC50 | 12 µM |
| COc1ccc(CCN)cc1OC | mouse MPNST tumor cells | high-content nuclear imaging, measured: cell number | 10 µM, 12 h, mean of 2 replicates | baseline: plate mean, higher = more cells | nuclei count | 1.48 z-score |
| SARS1 (Homo sapiens, UniProt P49591) | BLTP3A (Homo sapiens, UniProt Q6BDS2) | cross-linking MS | with: DSSO |  | cross-linked residues | K116 to S746 |
| CC(C)CC(N)C1(c2ccc(Cl)cc2)CCC1 (stereo not shown) | mouse MPNST tumor cells | high-content nuclear imaging, measured: cell number | 10 µM, 12 h, mean of 2 replicates | baseline: plate mean, higher = more cells | nuclei count | 2.67 z-score |
| COc1ccc([C@@]23Oc4cc(OC)cc(OC)c4[C@]2(O)[C@@H](O)C[C@H]3c2ccccc2)cc1 | Eukaryotic initiation factor 4A-III (Homo sapiens, UniProt P38919) | RNA clamping, fluorescence polarization | concentration not given, mean of two replicates, with: FAM-labelled poly r(AG)8 RNA |  | fluorescence polarization change | 21.9 mP |

For quick reference, copied from above (other studies, line by line):
| Molecule | tested on | test | conditions | scale | endpoint | result |
| --- | --- | --- | --- | --- | --- | --- |
| COc1cc([C@H]2OC[C@@H]3[C@@H]2CO[C@H]3c2cc(OC)c(O[C@@H]3O[C@H](CO)[C@@H](O)[C@H](O)[C@H]3O)c(OC)c2)cc(OC)c1O[C@@H]1O[C@H](CO)[C@@H](O)[C@H](O)[C@H]1O | CAMK2A (Homo sapiens, UniProt Q9UQM7) | enzyme activity, inhibitor | 10 µM |  | inhibition | 11% |
| SARS1 (Homo sapiens, UniProt P49591) | BLTP3A (Homo sapiens, UniProt Q6BDS2) | cross-linking MS | with: DSSO |  | cross-linked residues | K116 to S746 |
